Experimental data gathered from unrelated publications.
Protocols differ between the studies behind these lines. ± marks the error that the study gave.
HDAC1: Histone deacetylase 1 (HDAC1, Homo sapiens, UniProt Q13547)
Sequence of UniProt Q13547 (whole entry, looked up): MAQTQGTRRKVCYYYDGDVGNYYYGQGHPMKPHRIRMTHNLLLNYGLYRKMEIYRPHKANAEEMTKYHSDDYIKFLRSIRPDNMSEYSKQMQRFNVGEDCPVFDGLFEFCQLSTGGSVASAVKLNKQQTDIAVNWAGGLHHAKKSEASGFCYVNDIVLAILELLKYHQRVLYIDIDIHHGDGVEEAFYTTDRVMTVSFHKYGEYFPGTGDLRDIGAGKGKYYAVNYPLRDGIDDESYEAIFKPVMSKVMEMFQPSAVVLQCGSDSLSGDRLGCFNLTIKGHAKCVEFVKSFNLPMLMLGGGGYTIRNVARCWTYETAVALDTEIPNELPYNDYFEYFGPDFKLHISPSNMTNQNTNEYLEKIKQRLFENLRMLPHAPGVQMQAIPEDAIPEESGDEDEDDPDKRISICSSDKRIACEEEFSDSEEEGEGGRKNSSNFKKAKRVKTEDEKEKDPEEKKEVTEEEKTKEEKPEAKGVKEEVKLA
CTSL: Procathepsin L (CTSL, Homo sapiens, UniProt P07711)
Sequence of UniProt P07711 (whole entry, looked up): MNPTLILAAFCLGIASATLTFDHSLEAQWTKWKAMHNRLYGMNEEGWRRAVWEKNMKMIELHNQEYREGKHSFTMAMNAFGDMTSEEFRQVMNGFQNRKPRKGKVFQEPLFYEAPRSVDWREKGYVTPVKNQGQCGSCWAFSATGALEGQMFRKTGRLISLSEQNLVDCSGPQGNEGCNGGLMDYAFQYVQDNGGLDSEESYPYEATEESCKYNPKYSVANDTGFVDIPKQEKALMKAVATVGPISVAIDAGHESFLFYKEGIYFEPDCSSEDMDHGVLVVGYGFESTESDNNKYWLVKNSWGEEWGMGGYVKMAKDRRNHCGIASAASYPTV
Urease: Urease (Canavalia ensiformis, UniProt P07374)
Sequence of UniProt P07374 (whole entry, looked up): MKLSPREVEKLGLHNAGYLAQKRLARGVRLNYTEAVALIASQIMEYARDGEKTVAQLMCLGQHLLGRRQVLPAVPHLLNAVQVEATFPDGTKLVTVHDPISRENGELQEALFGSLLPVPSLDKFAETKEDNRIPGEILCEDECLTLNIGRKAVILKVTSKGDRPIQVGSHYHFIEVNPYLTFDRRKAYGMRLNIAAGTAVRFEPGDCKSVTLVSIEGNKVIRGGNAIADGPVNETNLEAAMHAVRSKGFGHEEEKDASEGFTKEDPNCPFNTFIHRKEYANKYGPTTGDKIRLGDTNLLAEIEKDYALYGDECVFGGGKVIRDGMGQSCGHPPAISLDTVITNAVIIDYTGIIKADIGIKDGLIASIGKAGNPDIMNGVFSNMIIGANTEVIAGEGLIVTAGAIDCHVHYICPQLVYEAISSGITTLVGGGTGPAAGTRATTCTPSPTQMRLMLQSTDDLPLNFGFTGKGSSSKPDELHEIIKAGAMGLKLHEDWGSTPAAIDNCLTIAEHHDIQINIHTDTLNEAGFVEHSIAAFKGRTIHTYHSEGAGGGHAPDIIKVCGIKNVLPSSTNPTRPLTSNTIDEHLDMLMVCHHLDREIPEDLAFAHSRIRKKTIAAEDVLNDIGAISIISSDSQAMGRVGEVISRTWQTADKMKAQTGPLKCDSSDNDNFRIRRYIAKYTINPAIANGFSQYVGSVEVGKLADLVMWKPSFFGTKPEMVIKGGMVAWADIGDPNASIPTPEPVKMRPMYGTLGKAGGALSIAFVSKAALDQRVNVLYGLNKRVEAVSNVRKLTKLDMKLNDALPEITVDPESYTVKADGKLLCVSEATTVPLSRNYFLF
Sequence of UniProt P46663 (whole entry, looked up): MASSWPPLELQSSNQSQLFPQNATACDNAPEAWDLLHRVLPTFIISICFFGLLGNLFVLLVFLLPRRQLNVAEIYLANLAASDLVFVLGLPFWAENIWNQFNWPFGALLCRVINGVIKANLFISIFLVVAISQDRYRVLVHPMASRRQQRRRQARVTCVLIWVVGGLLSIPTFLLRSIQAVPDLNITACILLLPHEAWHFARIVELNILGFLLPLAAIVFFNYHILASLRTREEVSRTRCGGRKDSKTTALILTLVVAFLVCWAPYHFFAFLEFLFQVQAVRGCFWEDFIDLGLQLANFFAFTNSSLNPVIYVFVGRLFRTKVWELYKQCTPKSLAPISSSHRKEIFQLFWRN
Sequence of UniProt Q02127 (whole entry, looked up): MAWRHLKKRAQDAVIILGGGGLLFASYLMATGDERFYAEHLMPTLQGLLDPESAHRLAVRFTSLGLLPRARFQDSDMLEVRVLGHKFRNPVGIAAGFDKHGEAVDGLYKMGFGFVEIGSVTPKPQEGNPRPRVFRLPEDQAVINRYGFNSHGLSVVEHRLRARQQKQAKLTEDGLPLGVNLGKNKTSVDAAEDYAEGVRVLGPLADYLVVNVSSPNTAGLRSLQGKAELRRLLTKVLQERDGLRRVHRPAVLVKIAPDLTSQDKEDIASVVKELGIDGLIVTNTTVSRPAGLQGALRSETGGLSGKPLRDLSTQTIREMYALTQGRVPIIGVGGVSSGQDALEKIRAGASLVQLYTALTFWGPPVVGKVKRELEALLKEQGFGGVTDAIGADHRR
Sequence of UniProt P20813 (whole entry, looked up): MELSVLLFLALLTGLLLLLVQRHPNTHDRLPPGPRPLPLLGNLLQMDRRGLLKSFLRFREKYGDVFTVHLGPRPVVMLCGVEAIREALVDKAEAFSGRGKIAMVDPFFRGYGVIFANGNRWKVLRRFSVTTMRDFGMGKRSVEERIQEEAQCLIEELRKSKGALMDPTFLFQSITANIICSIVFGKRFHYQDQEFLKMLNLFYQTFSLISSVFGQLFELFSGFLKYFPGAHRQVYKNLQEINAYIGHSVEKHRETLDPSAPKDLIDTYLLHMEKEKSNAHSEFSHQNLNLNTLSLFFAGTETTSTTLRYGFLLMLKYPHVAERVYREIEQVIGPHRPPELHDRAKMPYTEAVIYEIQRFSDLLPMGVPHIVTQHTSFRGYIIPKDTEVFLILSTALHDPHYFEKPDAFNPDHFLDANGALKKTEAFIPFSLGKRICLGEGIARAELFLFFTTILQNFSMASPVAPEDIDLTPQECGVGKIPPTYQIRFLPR
Sequence of UniProt P28223 (whole entry, looked up): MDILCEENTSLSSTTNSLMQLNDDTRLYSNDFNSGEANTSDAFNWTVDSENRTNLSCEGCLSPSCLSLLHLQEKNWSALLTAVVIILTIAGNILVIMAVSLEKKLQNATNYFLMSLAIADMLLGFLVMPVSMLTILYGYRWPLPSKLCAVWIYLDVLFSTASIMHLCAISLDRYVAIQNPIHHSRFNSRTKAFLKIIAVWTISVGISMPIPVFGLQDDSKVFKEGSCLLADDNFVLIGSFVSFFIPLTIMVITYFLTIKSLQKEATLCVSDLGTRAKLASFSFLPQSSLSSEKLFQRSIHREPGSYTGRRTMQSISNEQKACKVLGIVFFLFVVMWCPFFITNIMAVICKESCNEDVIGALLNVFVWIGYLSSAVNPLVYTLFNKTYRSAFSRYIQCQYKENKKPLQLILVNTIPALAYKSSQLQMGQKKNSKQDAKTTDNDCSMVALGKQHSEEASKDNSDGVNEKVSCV
Sequence of UniProt Q9HC16 (whole entry, looked up): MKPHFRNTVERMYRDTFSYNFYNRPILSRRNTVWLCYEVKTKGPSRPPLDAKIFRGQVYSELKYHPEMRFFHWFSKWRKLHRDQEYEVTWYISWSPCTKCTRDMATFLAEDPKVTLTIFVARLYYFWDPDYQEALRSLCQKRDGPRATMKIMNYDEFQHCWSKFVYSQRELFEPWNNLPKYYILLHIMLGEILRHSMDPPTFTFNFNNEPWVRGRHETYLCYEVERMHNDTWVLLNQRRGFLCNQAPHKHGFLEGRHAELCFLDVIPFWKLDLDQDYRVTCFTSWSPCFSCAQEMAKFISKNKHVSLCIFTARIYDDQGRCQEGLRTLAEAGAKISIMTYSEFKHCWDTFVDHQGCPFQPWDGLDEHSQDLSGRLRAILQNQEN
Sequence of UniProt Q6P6C2 (whole entry, looked up): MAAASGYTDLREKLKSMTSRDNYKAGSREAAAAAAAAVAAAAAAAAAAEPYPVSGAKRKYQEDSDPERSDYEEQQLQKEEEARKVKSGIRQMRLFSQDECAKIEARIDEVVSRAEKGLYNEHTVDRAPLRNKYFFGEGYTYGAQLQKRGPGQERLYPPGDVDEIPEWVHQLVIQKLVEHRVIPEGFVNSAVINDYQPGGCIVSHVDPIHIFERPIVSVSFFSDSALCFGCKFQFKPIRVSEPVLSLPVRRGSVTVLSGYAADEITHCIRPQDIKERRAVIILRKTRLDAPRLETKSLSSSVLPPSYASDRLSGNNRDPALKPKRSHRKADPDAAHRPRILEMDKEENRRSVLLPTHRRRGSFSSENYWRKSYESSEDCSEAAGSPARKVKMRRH
Sequence of UniProt Q9Y6L6 (whole entry, looked up): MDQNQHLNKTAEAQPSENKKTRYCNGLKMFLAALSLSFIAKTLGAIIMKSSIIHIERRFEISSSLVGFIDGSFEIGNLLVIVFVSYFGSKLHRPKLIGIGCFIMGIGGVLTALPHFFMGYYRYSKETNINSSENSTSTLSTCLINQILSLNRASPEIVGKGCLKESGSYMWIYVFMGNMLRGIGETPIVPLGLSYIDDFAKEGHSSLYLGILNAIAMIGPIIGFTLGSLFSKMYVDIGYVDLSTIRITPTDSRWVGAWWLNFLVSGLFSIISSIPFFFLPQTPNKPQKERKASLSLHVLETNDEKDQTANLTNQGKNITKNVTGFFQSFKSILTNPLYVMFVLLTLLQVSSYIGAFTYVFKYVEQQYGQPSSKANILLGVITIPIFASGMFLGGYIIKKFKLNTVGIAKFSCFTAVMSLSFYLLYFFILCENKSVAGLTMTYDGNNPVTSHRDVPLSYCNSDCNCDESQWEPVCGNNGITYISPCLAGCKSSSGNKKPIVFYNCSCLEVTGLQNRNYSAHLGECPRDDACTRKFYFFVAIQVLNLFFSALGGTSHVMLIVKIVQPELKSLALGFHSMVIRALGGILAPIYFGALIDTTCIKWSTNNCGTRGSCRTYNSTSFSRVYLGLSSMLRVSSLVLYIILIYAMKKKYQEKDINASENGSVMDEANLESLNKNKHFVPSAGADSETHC

`CN(C)c1ccc(NC(=O)CCCCCNC(=O)CS)cc1` gave an IC50 of 5.38 µM (HDAC1; enzyme activity, inhibitor).
For `CCC(CC)OC1C=C(C(=O)OC(C)OC(=O)C(N)C(C)C)CC(NC(=N)N)C1NC(C)=O` (mixture of isomers), the IC50 was 190 ± 10 µM (Solute carrier family 15 member 1 (SLC15A1, Homo sapiens, UniProt P46059); [3H]Gly-Sar uptake; Caco-2; 30 min, pH 6.0, added: Gly-Sar 10 µM).
The IC50 of `O=C(CCCCCCC(=O)Nc1ccc(N=Nc2ccccc2)cc1)NO` is reported as 0.045 ± 0.008 µM (HDAC1; enzyme activity, inhibitor; cis isomer, irradiated).
`Nc1nc2c(c(=O)[nH]1)[n+](Cc1ccc(OS(=O)(=O)F)cc1)cn2[C@@H]1O[C@H](COP(=O)(O)O)[C@@H](O)[C@H]1O` has an IC50 of 16.3 ± 2.9 µM (7-methylguanosine phosphate-specific 5'-nucleotidase (NT5C3B, Homo sapiens, UniProt Q969T7); m7GMP dephosphorylation, inhibitor, malachite green; 1 h preincubation, pH 7.5, 30 °C, added: m7GMP 100 µM).
`O=C(c1cccc(-n2cccc2)c1)N1CCCN(S(=O)(=O)c2ccc(F)cc2)CC1` has an IC50 of 66.9 µM (CTSL; enzyme activity, inhibitor, FRET).
The IC50 of `Clc1cc2oc3cc(Cl)c(Cl)cc3c2cc1Cl` is reported as 0.00162 µM (Aryl hydrocarbon receptor (Ahr, Mus musculus, UniProt P30561); radioligand binding, hydroxyapatite competition binding; in vitro expressed receptor; pH 7.5, added: [3H]TCDD 2 nM).
With `CC1(C)OC2OC(C(CCO)NC(=O)Nc3cccc(NC(=O)NC(CCO)C4OC5OC(C)(C)OC5C4OCc4ccccc4)c3)C(OCc3ccccc3)C2O1` (stereo not drawn) the IC50 was 380 µM (DNA ligase 1 (Homo sapiens, UniProt P18858); enzyme activity, inhibitor, radiometric).
For `O=C1C(O)=C(Nc2cccc(C(F)(F)F)c2)C(=O)c2ccccc21`, the IC50 was 0.101 µM (Dihydroorotate dehydrogenase (quinone), mitochondrial (DHODH, Homo sapiens, UniProt Q02127); enzyme activity, inhibitor, absorbance).
With `CN(C)CP(=O)(O)O` the IC50 was 82 µM (Urease; enzyme activity, inhibitor, absorbance; pH 7).
`CC(=O)CCC1C(=O)NC(C(C)C)C(=O)NC(Cc2cc(O)cc(F)c2)C(=O)N2CCCC(N2)C(=O)OC(C(C)=CC=CC(=O)N2CCCCO2)CC=CC=CC(O)C(C)C1O` (stereo not drawn) has an IC50 of 4.31 µM (Solute carrier organic anion transporter family member 1B1 (SLCO1B1, Homo sapiens, UniProt Q9Y6L6); transporter uptake, inhibitor; CHO; pH 7.3).
`O=C(O)c1ccccc1-c1c2ccc(=O)c([As]3SCCS3)c-2oc2c([As]3SCCS3)c(O)ccc12` has an IC50 of 0.295 µM (Tyrosine-protein phosphatase non-receptor type 11 (PTPN11, Homo sapiens, UniProt Q06124); enzyme activity, inhibitor, fluorescence; pH 7).
`CC(C)(C)c1ccc(NC(=O)NCCC[C@H](CNCc2ccccc2)C[C@H]2O[C@@H](n3cnc4c(N)ncnc43)[C@H](O)[C@@H]2O)cc1` gave an IC50 of over 50 µM (RNA demethylase ALKBH5 (Homo sapiens, UniProt Q6P6C2); RNA demethylase activity, inhibitor).
With `C/C=C1/CN2CCc3c([nH]c4ccccc34)[C@@H]2C[C@@H]1/C(=C\OC)C(=O)OC` the IC50 was 6.19 µM (5-hydroxytryptamine receptor 2C (HTR2C, Homo sapiens, UniProt P28335); GTPγS binding, antagonist, radiometric).
With `CSCC[C@@H]1NC(=O)[C@H](Cc2c[nH]c3ccccc23)NC(=O)[C@H](CCCNC(=N)N)NC(=O)[C@H](Cc2c[nH]c3ccccc23)NC(=O)[C@H](CCCNC(=N)N)NC(=O)[C@H](C)NC(=O)[C@@H](NC(=O)[C@@H](N)C(C)C)CSCC(=NOCC(=O)NCP(=O)(Oc2ccccc2)Oc2ccccc2)CSC[C@@H](C(=O)NCC(N)=O)NC(=O)[C@@H]2CCCN2C1=O` the IC50 was 0.879 µM (Fluorophosphonate-binding serine hydrolase F (Staphylococcus aureus, UniProt Q2FUY3); inhibitor; 1 h preincubation, added: 4-methylumbelliferyl heptanoate).
For `F[P-](F)(F)(F)(F)F.OCP(CO)CO.OCP(CO)CO.OCP(CO)CO.OCP(CO)CO.[Cu+]`, the IC50 was 37 µM (PSMB6/PSMB5/PSMB7 (Homo sapiens, UniProt P28072+P28074+Q99436); proteasome C-L activity, inhibitor; LoVo; 24 h).
For `CC(C)C[C@H](NC(=O)[C@H](CCCNC(=N)N)NC(=O)CNC(=O)[C@H](CCC(=O)O)NC(=O)[C@@H]1CCCN1C(=O)[C@H](Cc1c[nH]cn1)NC(=O)[C@@H](NC(=O)[C@@H](N)C(C)C)C(C)C)C(=O)O`, the IC50 was 1140 µM (Angiotensin-converting enzyme (ACE, Homo sapiens, UniProt P12821); enzyme activity, inhibitor, HPLC).
With `CN(CC(N)=O)C(=O)c1cc(Cl)sc1Cl` the IC50 was 0.68 µM (Urease; enzyme activity, inhibitor, absorbance).
For `NC1CCc2cc(O)c(O)cc2C1` (stereo not drawn), the IC50 was 15.7 µM (Carbamate kinase (Giardia intestinalis, UniProt A8BB85); enzyme activity, inhibitor, coupled absorbance).
For `C[C@@H](O)[C@@H]1NC(=O)[C@H](CC(=O)O)NC(=O)CNC(=O)[C@H](CCC(N)=O)NC(=O)[C@@H]2CCCN2C(=O)[C@H](Cc2cnc[nH]2)NC(=O)[C@@H](N)CSSC[C@@H](C(=O)NCC(N)=O)NC1=O`, the IC50 was 25.6 µM (Streptavidin (Streptomyces avidinii, UniProt P22629)).
For `COC(=O)C=CCCC(NC(=O)c1ccncc1C(=O)O)C(=O)NC(C(=O)N1CC(=O)CC1C(=O)NC(C(=O)NC(C(N)=O)C1CCCCC1)C1CCCCC1)C(C)(C)C` (stereo not drawn), the IC50 was 0.445 µM (Protein-glutamine gamma-glutamyltransferase (TGM2, Homo sapiens, UniProt P21980); enzyme activity, inhibitor).
With `CC(C)=C/C=C/[C@@H](C)[C@H]1CC[C@@H]2[C@]1(C)CC[C@H]1[C@]23C=C[C@]2(C[C@@H](O)CC[C@]12C)OO3` the IC50 was 1.19 µM (Tyrosine-protein phosphatase non-receptor type 6 (PTPN6, Homo sapiens, UniProt P29350); enzyme activity, inhibitor, absorbance).
For `CCCCCc1cc(O)c2c(c1)OC(C)(C)C1CCC(C(=O)OC3OC(C(=O)O)C(O)C(O)C3O)=CC21` (stereo not drawn), the IC50 was 4.1 ± 1 µM (Cytochrome P450 2B6 (CYP2B6, Homo sapiens, UniProt P20813); inhibitor; HEK cell microsomes; 30 min preincubation with NADPH).
With `N=C(N)NCCC[C@H](NC(=O)[C@@H](N)CCCCN)C(=O)N1CCC[C@H]1C(=O)N1CCC[C@H]1C(=O)NCC(=O)N[C@@H](Cc1ccccc1)C(=O)N[C@@H](CO)C(=O)N1CCC[C@H]1C(=O)N[C@@H](Cc1ccccc1)C(=O)N[C@@H](CCCCN)C(=O)O` the IC50 was 0.78 µM (B1 bradykinin receptor (BDKRB1, Homo sapiens, UniProt P46663)).
The IC50 of `CSCCC(C=O)NC(=O)C(CC(C)C)NC(=O)C(CC(C)C)NC(C)=O` (stereo not drawn) is reported as 0.00041 µM (CTSL; enzyme activity, inhibitor; pH 5.5).
The IC50 of `CN(C)S(=O)(=O)c1cc(O)c(O)c2c1CN(Cc1ccc(F)c(Cl)c1)C2=O` is reported as 0.077 ± 0.004 µM (Gag-Pol polyprotein, integrase (gag-pol, Human immunodeficiency virus 1, UniProt P12497); strand transfer, inhibitor, gel-based; recombinant wild-type integrase).
With `O=C1c2ccccc2[Se](=O)N1c1ccccc1` (stereo not drawn) the IC50 was 1.49 µM (Histone deacetylase 5 (HDAC5, Homo sapiens, UniProt Q9UQL6); enzyme activity, inhibitor, fluorescence).
`CSCC[C@H](NC=O)C(=O)N[C@@H](CCC(=O)O)C(=O)N[C@@H](Cc1ccccc1)C(=O)N[C@H](C(=O)N[C@@H](C)C(=O)N[C@@H](CCCCN)C(=O)N[C@@H](CC(C)C)C(=O)N[C@@H](Cc1ccccc1)C(=O)N[C@@H](CCCCN)C(=O)N[C@@H](Cc1ccccc1)C(=O)N[C@@H](Cc1ccccc1)C(=O)N[C@@H](CCCCN)C(=O)N[C@@H](CC(=O)O)C(=O)N[C@@H](CC(C)C)C(=O)N[C@@H](CC(C)C)C(=O)NCC(=O)N[C@@H](CCCCN)C(=O)N[C@@H](Cc1ccccc1)C(=O)N[C@@H](CC(C)C)C(=O)NCC(=O)N[C@@H](CC(N)=O)C(=O)N[C@@H](CC(N)=O)C(=O)O)C(C)C` has an IC50 of 0.0501 µM (N-formyl peptide receptor 2 (FPR2, Homo sapiens, UniProt P25090); ligand displacement, radioligand; cell membranes).
For `C[C@@](Cc1ccccc1)(NC(=O)[C@@H]1CCCN1C(=O)[C@H](CO)NC(=O)[C@H](Cc1ccccc1)NC(=O)CNC(=O)[C@@H]1CCCN1C(=O)[C@@H]1CCCN1C(=O)[C@@H](N)CCCNC(=N)N)C(=O)N[C@@H](CCCNC(=N)N)C(=O)O`, the IC50 was 0.074 µM (B2 bradykinin receptor (BDKRB2, Homo sapiens, UniProt P30411); ligand displacement, radioligand).
The IC50 of `CC[C@H](C)[C@H](N)C(=O)N[C@@H](CS)C(=O)N[C@@H](Cc1ccccc1)C(=O)N[C@@H](CC(C)C)C(=O)N[C@@H](Cc1c[nH]cn1)C(=O)N[C@@H](Cc1ccc(O)cc1)C(=O)N[C@@H](CC(=O)O)C(=O)N[C@@H](Cc1ccccc1)C(=O)N[C@@H](Cc1ccc(O)cc1)C(=O)O` is reported as over 100 µM (DNA dC->dU-editing enzyme APOBEC-3G (APOBEC3G, Homo sapiens, UniProt Q9HC16); deamination activity, inhibitor, PCR/StuI restriction; pH 7.4, 37 °C, added: ssDNA substrate 1 fmol/µL).
The IC50 of `COc1c(OCCOCCOc2cccc(C(=O)C3CCN(CCc4ccc(F)cc4)CC3)c2OC)cccc1C(=O)C1CCN(CCc2ccc(F)cc2)CC1` is reported as 0.298 µM (5-hydroxytryptamine receptor 2A (HTR2A, Homo sapiens, UniProt P28223); phosphorylation in cells, antagonist).

Some of these lines once more:
`CN(C)c1ccc(NC(=O)CCCCCNC(=O)CS)cc1` gave an IC50 of 5.38 µM (HDAC1; enzyme activity, inhibitor).
For `CCC(CC)OC1C=C(C(=O)OC(C)OC(=O)C(N)C(C)C)CC(NC(=N)N)C1NC(C)=O` (mixture of isomers), the IC50 was 190 ± 10 µM (Solute carrier family 15 member 1 (SLC15A1, Homo sapiens, UniProt P46059); [3H]Gly-Sar uptake; Caco-2; 30 min, pH 6.0, added: Gly-Sar 10 µM).
The IC50 of `O=C(CCCCCCC(=O)Nc1ccc(N=Nc2ccccc2)cc1)NO` is reported as 0.045 ± 0.008 µM (HDAC1; enzyme activity, inhibitor; cis isomer, irradiated).
`Nc1nc2c(c(=O)[nH]1)[n+](Cc1ccc(OS(=O)(=O)F)cc1)cn2[C@@H]1O[C@H](COP(=O)(O)O)[C@@H](O)[C@H]1O` has an IC50 of 16.3 ± 2.9 µM (7-methylguanosine phosphate-specific 5'-nucleotidase (NT5C3B, Homo sapiens, UniProt Q969T7); m7GMP dephosphorylation, inhibitor, malachite green; 1 h preincubation, pH 7.5, 30 °C, added: m7GMP 100 µM).
`O=C(c1cccc(-n2cccc2)c1)N1CCCN(S(=O)(=O)c2ccc(F)cc2)CC1` has an IC50 of 66.9 µM (CTSL; enzyme activity, inhibitor, FRET).
